# Published values of several laboratories.
# Every numbered part comes from another study and shows a few of its results, in no order. Positions count from the first letter of the parent shown.
# Sequence of UniProt Q93WC4 (whole entry, looked up): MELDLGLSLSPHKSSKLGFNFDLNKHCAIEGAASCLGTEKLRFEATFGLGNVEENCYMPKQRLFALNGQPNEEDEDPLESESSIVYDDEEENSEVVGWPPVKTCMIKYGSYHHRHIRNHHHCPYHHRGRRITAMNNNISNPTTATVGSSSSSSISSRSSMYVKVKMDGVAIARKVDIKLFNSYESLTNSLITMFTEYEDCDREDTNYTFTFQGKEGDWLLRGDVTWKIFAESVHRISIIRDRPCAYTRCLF
# Sequence of UniProt Q38832 (whole entry, looked up): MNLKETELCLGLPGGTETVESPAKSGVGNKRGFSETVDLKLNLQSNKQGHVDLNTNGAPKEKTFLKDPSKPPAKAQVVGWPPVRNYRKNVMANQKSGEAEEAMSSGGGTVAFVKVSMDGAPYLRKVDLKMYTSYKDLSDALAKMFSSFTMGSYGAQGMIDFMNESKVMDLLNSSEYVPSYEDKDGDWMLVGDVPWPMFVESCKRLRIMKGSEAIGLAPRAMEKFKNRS
# Sequence of UniProt Q9C5W9 (whole entry, looked up): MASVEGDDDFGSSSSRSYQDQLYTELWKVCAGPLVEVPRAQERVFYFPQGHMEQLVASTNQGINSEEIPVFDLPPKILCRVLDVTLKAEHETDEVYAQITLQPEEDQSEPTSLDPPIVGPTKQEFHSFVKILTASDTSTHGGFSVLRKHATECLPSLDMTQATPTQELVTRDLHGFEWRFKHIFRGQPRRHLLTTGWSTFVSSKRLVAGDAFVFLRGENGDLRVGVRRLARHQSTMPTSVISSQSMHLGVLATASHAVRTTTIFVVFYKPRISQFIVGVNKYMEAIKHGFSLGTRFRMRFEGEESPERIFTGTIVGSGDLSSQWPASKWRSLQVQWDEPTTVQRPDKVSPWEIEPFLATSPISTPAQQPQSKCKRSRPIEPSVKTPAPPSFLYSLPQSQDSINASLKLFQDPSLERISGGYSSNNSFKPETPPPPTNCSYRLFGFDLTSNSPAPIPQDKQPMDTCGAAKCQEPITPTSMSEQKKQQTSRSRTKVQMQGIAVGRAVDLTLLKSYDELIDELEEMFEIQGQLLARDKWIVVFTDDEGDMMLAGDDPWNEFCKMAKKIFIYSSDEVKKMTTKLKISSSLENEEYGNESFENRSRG
# Sequence of UniProt Q9ZPY6 (whole entry, looked up): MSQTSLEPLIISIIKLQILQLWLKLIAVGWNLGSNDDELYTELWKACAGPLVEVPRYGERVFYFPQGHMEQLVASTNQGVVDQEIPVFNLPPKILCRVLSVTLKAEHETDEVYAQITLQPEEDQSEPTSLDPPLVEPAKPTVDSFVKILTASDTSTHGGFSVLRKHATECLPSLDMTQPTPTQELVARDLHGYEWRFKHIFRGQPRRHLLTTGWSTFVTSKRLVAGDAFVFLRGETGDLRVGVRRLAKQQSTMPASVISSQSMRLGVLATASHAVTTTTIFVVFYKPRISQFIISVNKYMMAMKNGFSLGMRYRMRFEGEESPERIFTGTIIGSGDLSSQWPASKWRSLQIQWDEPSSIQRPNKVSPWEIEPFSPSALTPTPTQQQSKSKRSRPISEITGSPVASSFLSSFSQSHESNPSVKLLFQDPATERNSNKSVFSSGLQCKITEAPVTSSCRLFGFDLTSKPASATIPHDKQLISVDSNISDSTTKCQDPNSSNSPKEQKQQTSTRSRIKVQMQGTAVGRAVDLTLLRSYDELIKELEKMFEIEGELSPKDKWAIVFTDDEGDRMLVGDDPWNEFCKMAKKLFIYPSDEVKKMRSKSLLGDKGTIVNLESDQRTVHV
# Sequence of UniProt Q9FX25 (whole entry, looked up): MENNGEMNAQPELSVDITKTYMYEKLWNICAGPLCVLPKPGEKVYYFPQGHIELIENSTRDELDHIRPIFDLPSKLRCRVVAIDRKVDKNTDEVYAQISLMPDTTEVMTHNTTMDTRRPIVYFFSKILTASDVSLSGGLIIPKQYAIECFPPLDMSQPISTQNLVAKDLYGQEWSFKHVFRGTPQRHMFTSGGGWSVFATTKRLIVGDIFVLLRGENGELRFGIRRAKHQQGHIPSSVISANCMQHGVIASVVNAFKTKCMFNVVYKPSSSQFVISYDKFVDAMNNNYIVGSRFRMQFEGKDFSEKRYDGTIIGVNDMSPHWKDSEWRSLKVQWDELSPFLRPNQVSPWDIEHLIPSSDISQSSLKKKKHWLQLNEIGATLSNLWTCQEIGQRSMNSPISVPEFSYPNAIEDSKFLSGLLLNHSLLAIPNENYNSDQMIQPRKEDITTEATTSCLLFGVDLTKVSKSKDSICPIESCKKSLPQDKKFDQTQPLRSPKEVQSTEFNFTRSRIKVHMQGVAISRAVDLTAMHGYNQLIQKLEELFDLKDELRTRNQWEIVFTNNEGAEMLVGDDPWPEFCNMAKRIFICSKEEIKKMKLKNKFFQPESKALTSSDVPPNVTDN
# Sequence of UniProt P93830 (whole entry, looked up): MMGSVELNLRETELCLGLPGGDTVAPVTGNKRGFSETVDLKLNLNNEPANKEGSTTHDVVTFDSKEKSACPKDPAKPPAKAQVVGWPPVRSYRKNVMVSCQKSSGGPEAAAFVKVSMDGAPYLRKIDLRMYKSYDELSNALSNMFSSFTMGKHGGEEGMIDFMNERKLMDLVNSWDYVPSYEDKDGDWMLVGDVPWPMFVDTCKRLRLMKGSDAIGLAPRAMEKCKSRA
# Sequence of UniProt Q9C5X0 (whole entry, looked up): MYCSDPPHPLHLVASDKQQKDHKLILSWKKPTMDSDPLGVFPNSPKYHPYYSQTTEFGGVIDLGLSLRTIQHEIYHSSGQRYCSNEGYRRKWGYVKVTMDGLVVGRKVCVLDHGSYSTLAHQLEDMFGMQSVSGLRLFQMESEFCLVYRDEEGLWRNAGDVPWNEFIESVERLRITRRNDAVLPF

# Block 1
# Sequence: B1 (IAA13)
# Technique: two-hybrid
# Reading: higher = firmer interaction
# B1: IAA13 (Arabidopsis thaliana, UniProt Q38831); chain MITELEMGKGESELELGLGLSLGGGTAAKIGKSGGGGAWGERGRLLTAKDFPSVGSKRAADSASHAGSSPPRSSSQVVGWPPIGSHRMNSLVNNQATKSAREEEEAGKKKVKDDEPKDVTKKVNGKVQVGFIKVNMDGVAIGRKVDLNAHSSYENLAQTLEDMFFRTNPGTVGLTSQFTKPLRLLDGSSEFVLTYEDKEGDWMLVGDVPWRMFINSVKRLRVMKTSEANGLAARNQEPNERQRKQPV
partner,how to read,positive tests
"ARF13 (Arabidopsis thaliana, UniProt Q9FX25)",relative to: out of 4 tests,0
"ARF18 482-602 (Arabidopsis thaliana, UniProt Q9C5W9)",relative to: out of 4 tests,0
"IAA17 (Arabidopsis thaliana, UniProt P93830)",relative to: out of 4 tests,2
"ARF11 500-622 (Arabidopsis thaliana, UniProt Q9ZPY6)",relative to: out of 2 tests,0
"IAA14 (Arabidopsis thaliana, UniProt Q38832)",relative to: out of 4 tests,4
"IAA29 (Arabidopsis thaliana, UniProt Q93WC4)",relative to: out of 4 tests,0
"IAA34 (Arabidopsis thaliana, UniProt Q9C5X0)",relative to: out of 4 tests,2

# Block 2
# Target: CCND2, cyclin fold, Cln2 fusion (human)
# Technique: yeast growth competition, sequencing
# Medium: yeast
# Notes: weak parent motif
# Relative to: not given
# Reading: higher = stronger binding
# Starting sequence: viral docking peptide; PGASRRLFGSSAD
Variant,normalised enrichment score
R5K F8L,0.107
R6A,0.158
R5A L7A,0.0997
S11A,0.418
F8L,0.0102
G9A,0.405
F8A,0.1
S4A,0.133
R5A,-0.0148

# Block 3
# Target: RING finger protein unkempt homolog, zinc fingers 1-6, GST-SBP tag (UNK, Homo sapiens, UniProt Q9C0B0, residues 30-357)
# Sequence of UniProt Q9C0B0 (30-357, looked up): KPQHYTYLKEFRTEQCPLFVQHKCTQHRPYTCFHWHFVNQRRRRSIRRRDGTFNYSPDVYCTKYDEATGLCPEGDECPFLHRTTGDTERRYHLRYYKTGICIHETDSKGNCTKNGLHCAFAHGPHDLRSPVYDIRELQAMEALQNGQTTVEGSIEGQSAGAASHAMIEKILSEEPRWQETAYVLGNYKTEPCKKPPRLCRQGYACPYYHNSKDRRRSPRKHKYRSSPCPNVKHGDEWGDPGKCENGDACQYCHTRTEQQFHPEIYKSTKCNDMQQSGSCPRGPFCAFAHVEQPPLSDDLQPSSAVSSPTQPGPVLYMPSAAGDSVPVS
# Technique: RNA Bind-n-Seq
# Form: RNA
# Medium: in vitro
# Tested at: not given
# Notes: RNA with constant flanks, ends assumed
# Relative to: input RNA pool
# Reading: higher = stronger binding
# Constant ends, left off below: GGGAGUUCUACAGUCCGACGAUC … CAACAGAGGAUUGAGCAUCA
Sequence,bound/input enrichment [ratio]
CUGCGAAGACAGCUGGCAGAACUCAACAAAAAUCCAGUGGAAGGCUUUUCAGCAGGUUUAACCGACGACAAUGAUCUCUAUCGUUGGGAAGUCCUUAUUAUUGGUCCUCCAGAUACACUU,0.109
UUUCAUCUUCUGGAGUUAGAAAAGGUCCACGAACUAUGUGAUAACUUCUGCCACCGGUACAUCCGCUGUUUGAAGGGAAAAAUGCCCAUUGACCUCGUGAUUGAUGAGAGAGAUGGAAGC,0.118
ACUGAUUUAUAUGAUAUAAAACGUGCAGUGGUUCACACCCAUCUUCUUAACCCUGAGUGGUCCGUCAACUACUUUGGUUCCUUAUCAGUAGAAGACUCCCUAGAAUGUCUCAGAGCCAUG,0.254
ACCUCUCUAGUAUGUUCUGUGACUCUGCUCAUUACAAUCCUGUGCUCUACAUUGAUCCUUGCCGCAGUUUUCAAAUAUGGCCAUUUUUCCCUAUAAGUUUUAUGUAGUUAAAUGCUUCCU,3.98
AACAGGAUCAGUUAAUUAUUCCAUUUAUACCUACUGUAGGCUUUUUAUUCAACAGUUAUCUGCCGCUUAAGUACAUGAUAGGCAAAAACAAAGAGAAAAGAAAUGUUUUUGUAGUAGUGG,1.31
UUGUAUUUUCUAUCCAAAGAAAUAUAUGUGAUUACCCCAGAGACCUUCUCUACCAUAUCAGCCGCCGGGUUGAUAGUCUAUGUGAUUAAGAAAUAUGGCGCCUCUUUUGGAGAAUUUAUU,0.876
CUUGCAGAGGCUGAGAGUCCCCCCCCCACCUUUUUUUUCAUUUAGAUGUAACAAACCCCGCCGUUUAUGUUCAUCAAUUGUCUGUAUAUCUCUAUAUUUUAUCCAUGUACUCUUUUGAUG,3.3
UUAAUUUAUAUGAAGUUUGAUUUUUUAAAAAAUACCUGAAUUAUUAUUGCCUGCCCUGGCCCGUUUUAUAUCAACUUGAUACAAGCUAGAGUCAUUUGGGGAGAGGGACUCUGAAUUGAG,0.867

# Single results of other studies
SMILES,cell line,conditions,endpoint,result
CC(C)C(Br)C(=O)NC(N)=O (stereo not shown),A-375,"100 µM, 18 h",viability,103%

# For quick reference, copied from above (block 2):
Variant,normalised enrichment score
R6A,0.158
F8L,0.0102
S11A,0.418
